Experimental data pooled from the literature.
Protocols differ between the studies behind these lines. ± marks the error that the study gave.
Organism: Trypanosoma brucei

SMILES | effect on | technique | strain | time | notes | EC50
CC(C)[C@@H](C)Nc1c(-c2c(F)cc(OCCCN(C)C)cc2F)c(Cl)nc2ncnn12 | parasite growth | SYBR Green |  | 72 h |  | 0.0723 µM
CCOc1ccccc1-c1nc(CC(=O)NCc2cn3ccccc3n2)cs1 | cell viability | flow cytometry, PI | bloodstream form | 24 h |  | > 25 µM
C[C@@H](Nc1c(-c2c(F)cc(C#CCCN(C)C)cc2F)c(Cl)nc2ncnn12)C(C)(C)C | parasite growth | SYBR Green |  | 72 h |  | 0.238 µM
Cc1ccc2c(c1Br)C(O)(CC(=O)c1ccc3c(c1)OCO3)C(=O)N2 (stereo not shown) | parasite growth | resazurin |  |  |  | 30 µM
CC(=O)OC[C@H]1O[C@@H]([Se]Sc2ccccc2)[C@H](OC(C)=O)[C@@H](OC(C)=O)[C@@H]1OC(C)=O | parasite growth |  |  | 24 h |  | 0.77 µM
COc1cccc(C(=O)c2sc(Nc3ccc(F)cc3)nc2N)c1 | parasite growth |  | bloodstream form | 69 h |  | 0.13 µM
CN(Cc1nc2ccccc2c(=O)[nH]1)C(=O)Cc1csc(-c2ccc(F)cc2)n1 | cell viability | flow cytometry, PI | bloodstream form | 24 h |  | > 25 µM
CC(=O)OC[C@H]1O[C@@H]([Se]SC[C@H]2O[C@@H]3OC(C)(C)O[C@@H]3[C@H]3OC(C)(C)O[C@H]32)[C@H](OC(C)=O)[C@@H](OC(C)=O)[C@@H]1OC(C)=O | parasite growth |  |  | 24 h |  | 0.35 µM
COC(=O)c1[nH]c(C(=O)OC)c2c1-c1c[nH]c3cccc(c13)C21CN(C)c2ccccc21 (racemic) | parasite growth | ATP luminescence |  | 48 h |  | 7.1 µM
CC(=O)OC[C@H]1O[C@@H]([Se][C@@H]2O[C@H](COC(C)=O)[C@@H](OC(C)=O)[C@H](OC(C)=O)[C@H]2OC(C)=O)[C@H](OC(C)=O)[C@@H](OC(C)=O)[C@@H]1OC(C)=O | parasite growth |  |  | 24 h |  | 3.6 µM
COc1cc2c(cc1-c1c(C)noc1C)ncc1[nH]c(=O)n([C@H](C)c3ccccn3)c12 | growth rate inhibition | flow cytometry | bloodstream form | 2 days |  | 31.7 ± 7.5 µM
CN(C)CCCOc1cc(F)c(-c2c(Cl)nc3ncnn3c2NCC2(C)CC2)c(F)c1 | parasite growth | SYBR Green |  | 72 h |  | 0.0576 µM
Clc1cccc(CNCCCNc2nc3ccccc3[nH]2)c1 | parasite growth |  |  |  |  | 0.15 µM
CN(C)CCCOc1cc(F)c(-c2c(Cl)nc3ncnn3c2NCC2CCC2)c(F)c1 | parasite growth | SYBR Green |  | 72 h |  | 0.0513 µM
COC(=O)c1[nH]c(C(=O)OC)c2c1-c1c[nH]c3ccc(Cl)c(c13)C21CNc2ccc(Cl)cc21 (racemic) | parasite growth | ATP luminescence |  | 48 h |  | 12 µM
CC(=O)N[C@@H]1[C@@H](OC(C)=O)[C@H](OC(C)=O)[C@@H](COC(C)=O)O[C@H]1[Se][Se][C@@H]1O[C@H](COC(C)=O)[C@@H](OC(C)=O)[C@H](OC(C)=O)[C@H]1NC(C)=O | parasite growth | flow cytometry |  | 24 h | blood stage | ~5 µM
C[C@H](Nc1c(-c2c(F)cc(OCCCN(C)C)cc2F)c(Cl)nc2ncnn12)C1CC1 | parasite growth | SYBR Green |  | 72 h |  | 0.101 µM
CCn1nc(-c2cc(Br)ccc2F)nc2c(=O)n(C)c(=O)nc1-2 | parasite growth | resazurin |  | 73 h |  | 8.1 µM
COC(=O)c1[nH]c(C(=O)OC)c2c1-c1c[nH]c3ccc(Cl)c(c13)[C@@]21C=Nc2ccc(Cl)cc21 | parasite growth | ATP luminescence |  | 48 h |  | 11 µM
C[C@H](Nc1c(-c2c(F)cc(OCCCN(C)C)cc2F)c(Cl)nc2ncnn12)C(C)(C)C | parasite growth | SYBR Green |  | 72 h |  | 0.0575 µM
CNc1nc(N)c(C(=O)c2ccc(F)cc2)s1 | cell proliferation | resazurin | bloodstream form | 73 h |  | 7 µM
Cc1ccc(-c2cc(C(=O)NCCCn3ccnc3)c3cc(Br)ccc3n2)o1 | parasite growth | resazurin |  | 73 h |  | 16.5 µM

A few entries again:
SMILES | effect on | technique | strain | time | notes | EC50
CN(C)CCCOc1cc(F)c(-c2c(Cl)nc3ncnn3c2NCC2(C)CC2)c(F)c1 | parasite growth | SYBR Green |  | 72 h |  | 0.0576 µM
Clc1cccc(CNCCCNc2nc3ccccc3[nH]2)c1 | parasite growth |  |  |  |  | 0.15 µM
